Measurements of several laboratories.
Each numbered part is a random draw from the data of one study; scales do not carry over between parts. Values joined by “and” are separate records of one study, mostly repeats; a detail may differ.
Sequence of UniProt P48729 (whole entry, looked up): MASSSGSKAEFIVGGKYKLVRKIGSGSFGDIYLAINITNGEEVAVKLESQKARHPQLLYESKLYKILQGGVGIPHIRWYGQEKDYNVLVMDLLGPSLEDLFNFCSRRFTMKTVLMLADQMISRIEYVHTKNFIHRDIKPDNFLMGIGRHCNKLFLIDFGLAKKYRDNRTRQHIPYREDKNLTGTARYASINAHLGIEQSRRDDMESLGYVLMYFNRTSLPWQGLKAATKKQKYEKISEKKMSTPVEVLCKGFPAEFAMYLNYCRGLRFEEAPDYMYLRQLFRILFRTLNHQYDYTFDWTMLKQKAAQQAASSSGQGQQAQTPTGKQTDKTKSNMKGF
Sequence of UniProt P41743 (whole entry, looked up): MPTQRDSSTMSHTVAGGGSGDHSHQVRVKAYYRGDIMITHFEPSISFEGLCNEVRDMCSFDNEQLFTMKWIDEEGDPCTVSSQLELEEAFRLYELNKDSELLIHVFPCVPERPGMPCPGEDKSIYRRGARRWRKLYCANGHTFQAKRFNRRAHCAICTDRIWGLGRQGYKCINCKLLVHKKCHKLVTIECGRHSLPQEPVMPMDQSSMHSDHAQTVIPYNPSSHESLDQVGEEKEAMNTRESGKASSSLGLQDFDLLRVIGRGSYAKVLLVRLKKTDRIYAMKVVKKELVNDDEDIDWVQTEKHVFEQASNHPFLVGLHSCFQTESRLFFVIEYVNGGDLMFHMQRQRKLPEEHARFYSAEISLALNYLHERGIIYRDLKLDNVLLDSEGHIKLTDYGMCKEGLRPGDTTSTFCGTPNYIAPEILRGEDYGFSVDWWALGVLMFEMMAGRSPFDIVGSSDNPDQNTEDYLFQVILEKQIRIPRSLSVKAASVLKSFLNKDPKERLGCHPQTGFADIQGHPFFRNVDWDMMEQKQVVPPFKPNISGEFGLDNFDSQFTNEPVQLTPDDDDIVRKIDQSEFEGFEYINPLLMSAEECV
Sequence of UniProt Q9NYY3 (whole entry, looked up): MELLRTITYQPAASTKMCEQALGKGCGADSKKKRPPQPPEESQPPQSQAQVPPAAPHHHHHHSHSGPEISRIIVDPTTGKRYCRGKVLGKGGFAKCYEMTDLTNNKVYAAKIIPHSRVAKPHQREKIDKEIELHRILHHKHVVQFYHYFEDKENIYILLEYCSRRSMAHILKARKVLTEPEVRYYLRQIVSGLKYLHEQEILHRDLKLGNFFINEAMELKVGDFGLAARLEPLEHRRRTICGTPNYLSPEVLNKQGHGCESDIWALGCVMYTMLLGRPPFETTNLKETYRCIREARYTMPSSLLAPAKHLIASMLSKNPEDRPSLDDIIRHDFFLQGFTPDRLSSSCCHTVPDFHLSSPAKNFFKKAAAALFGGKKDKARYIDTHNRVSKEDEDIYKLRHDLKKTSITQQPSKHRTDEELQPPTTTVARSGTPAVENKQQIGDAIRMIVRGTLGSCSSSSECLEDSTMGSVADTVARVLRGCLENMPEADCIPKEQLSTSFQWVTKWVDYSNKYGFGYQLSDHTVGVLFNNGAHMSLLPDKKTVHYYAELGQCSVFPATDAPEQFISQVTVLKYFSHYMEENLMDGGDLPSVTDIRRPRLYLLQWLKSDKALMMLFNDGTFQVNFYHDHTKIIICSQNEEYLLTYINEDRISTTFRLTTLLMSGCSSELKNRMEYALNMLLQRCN
Sequence of UniProt P78362 (whole entry, looked up): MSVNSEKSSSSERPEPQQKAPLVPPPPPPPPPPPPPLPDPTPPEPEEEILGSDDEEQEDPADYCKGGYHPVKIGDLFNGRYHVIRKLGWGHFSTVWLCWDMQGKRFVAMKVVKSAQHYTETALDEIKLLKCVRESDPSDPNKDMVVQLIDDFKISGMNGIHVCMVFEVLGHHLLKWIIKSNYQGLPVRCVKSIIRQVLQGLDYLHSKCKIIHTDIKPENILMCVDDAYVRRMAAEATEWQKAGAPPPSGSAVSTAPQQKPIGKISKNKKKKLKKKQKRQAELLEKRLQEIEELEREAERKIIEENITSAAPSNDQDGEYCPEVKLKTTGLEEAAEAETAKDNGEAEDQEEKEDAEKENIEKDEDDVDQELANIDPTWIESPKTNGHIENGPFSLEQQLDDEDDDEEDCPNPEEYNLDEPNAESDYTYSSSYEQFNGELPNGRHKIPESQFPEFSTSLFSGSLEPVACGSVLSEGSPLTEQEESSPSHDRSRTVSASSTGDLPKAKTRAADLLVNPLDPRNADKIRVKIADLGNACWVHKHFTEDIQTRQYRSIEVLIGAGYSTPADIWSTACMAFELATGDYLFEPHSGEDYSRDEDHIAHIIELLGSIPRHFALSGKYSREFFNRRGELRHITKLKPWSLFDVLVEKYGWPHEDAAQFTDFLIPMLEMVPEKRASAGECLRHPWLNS
Sequence of UniProt Q13177 (whole entry, looked up): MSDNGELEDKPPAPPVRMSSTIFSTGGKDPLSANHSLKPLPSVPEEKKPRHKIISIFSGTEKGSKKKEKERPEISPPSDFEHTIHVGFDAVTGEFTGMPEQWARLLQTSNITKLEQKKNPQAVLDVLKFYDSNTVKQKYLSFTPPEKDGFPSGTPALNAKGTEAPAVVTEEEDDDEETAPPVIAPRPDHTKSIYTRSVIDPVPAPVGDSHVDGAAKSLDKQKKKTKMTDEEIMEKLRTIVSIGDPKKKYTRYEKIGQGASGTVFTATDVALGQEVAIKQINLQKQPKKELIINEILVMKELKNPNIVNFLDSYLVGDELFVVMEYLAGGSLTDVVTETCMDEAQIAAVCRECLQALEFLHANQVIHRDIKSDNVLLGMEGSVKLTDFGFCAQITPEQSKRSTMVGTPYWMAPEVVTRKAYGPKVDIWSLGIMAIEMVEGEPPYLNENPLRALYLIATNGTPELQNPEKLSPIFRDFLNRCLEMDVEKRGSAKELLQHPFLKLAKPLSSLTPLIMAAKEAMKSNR
Sequence of UniProt P50750 (whole entry, looked up): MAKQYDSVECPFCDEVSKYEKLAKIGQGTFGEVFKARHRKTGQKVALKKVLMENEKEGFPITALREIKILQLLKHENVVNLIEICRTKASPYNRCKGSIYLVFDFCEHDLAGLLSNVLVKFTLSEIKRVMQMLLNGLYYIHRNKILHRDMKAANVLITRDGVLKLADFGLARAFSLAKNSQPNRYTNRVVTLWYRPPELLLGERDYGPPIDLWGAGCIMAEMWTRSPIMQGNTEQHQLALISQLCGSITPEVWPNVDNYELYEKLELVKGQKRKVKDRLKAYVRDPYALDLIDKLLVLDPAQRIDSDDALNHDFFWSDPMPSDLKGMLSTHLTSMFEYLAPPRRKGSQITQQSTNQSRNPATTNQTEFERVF
Sequence of UniProt Q8TDC3 (whole entry, looked up): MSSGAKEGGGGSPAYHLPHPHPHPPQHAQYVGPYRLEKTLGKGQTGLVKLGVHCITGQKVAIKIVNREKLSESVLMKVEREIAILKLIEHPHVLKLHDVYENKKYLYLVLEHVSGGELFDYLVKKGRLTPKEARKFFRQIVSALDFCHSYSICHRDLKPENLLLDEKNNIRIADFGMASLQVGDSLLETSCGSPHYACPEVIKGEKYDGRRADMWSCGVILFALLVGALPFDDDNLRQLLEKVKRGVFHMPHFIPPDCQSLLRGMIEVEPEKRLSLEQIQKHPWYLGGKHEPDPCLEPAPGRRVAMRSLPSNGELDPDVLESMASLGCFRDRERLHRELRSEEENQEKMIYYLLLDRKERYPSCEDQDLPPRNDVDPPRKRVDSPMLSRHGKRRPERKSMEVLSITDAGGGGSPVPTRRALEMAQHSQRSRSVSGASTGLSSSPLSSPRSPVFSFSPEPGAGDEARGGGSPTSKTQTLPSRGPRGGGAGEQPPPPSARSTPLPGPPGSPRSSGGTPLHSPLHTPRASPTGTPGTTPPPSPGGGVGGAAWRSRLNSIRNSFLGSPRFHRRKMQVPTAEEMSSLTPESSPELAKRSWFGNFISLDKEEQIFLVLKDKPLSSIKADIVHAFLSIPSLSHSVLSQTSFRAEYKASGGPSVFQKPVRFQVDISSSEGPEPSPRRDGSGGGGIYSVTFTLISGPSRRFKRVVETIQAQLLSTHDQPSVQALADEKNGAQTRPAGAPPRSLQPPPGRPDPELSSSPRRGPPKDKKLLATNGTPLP
Sequence of UniProt O14757 (whole entry, looked up): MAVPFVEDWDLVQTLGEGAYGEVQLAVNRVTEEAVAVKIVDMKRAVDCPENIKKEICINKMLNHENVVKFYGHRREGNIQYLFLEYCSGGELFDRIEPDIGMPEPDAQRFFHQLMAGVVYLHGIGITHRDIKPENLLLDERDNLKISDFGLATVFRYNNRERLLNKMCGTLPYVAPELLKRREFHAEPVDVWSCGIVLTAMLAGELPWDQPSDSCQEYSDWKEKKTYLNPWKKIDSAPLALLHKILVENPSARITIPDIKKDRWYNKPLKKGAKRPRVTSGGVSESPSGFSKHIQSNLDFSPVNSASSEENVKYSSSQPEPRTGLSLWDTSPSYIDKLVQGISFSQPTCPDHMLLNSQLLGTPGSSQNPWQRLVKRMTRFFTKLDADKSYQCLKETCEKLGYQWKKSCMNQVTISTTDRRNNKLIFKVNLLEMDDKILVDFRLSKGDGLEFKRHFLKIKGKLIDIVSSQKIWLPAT
Sequence of UniProt P52564 (whole entry, looked up): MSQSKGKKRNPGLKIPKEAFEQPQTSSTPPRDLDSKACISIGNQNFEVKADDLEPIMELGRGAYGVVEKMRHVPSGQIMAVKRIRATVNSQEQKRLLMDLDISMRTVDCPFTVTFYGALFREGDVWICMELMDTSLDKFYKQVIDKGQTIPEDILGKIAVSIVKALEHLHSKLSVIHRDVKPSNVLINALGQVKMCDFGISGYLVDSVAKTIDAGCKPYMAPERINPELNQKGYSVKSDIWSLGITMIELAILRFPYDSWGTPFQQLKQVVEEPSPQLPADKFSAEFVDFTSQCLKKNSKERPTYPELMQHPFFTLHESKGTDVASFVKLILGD

Sample 1
Organism: Sarcocystis neurona
Read-out: parasite growth
Concentration: 10 µM
Time: 96 h
Setting: first screen
Relative to: untreated
Endpoint: log2 fold change
CC(=O)OCC(=O)[C@@]12OC(C)(C)O[C@@H]1C[C@H]1[C@@H]3C[C@H](F)C4=CC(=O)C=C[C@]4(C)[C@@]3(F)[C@@H](O)C[C@@]12C: 0.19
O=C1c2cccc3c2[C@H](CCC3)CN1[C@@H]1CN2CCC1CC2: -0.44
Cc1ccc(C)c(OCCCC(C)(C)C(=O)O)c1: -0.13
O=C(NCCN1CCOCC1)c1ccc(Cl)cc1: 0.37
Cc1cccc(C)c1NC(=O)C1CCCCN1C (centres unmarked): 0.06
C#C[C@]1(O)CC[C@H]2[C@@H]3CCC4=CC(=O)CC[C@@H]4[C@H]3CC[C@@]21C: 0.19
Nc1nc(O)c2ncn(COC(CO)CO)c2n1: 0.17
CC(=O)OCC(=O)[C@@]1(O)CC[C@H]2[C@@H]3CCC4=CC(=O)CC[C@]4(C)[C@H]3C(=O)C[C@@]21C: -0.19
NC12CC3CC(CC(C3)C1)C2: 0.2
CN(C)[C@@H]1C(O)=C(C(N)=O)C(=O)[C@@]2(O)C(O)=C3C(=O)c4c(O)cccc4[C@@](C)(O)[C@H]3C[C@@H]12: -0.5
CCCNC(=O)NS(=O)(=O)c1ccc(Cl)cc1: 0.1

Sample 2
Compound: O=C(NC[C@@H]1[C@H]2CN(C(=O)OCc3cc(C(F)(F)F)cc(C(F)(F)F)c3)C[C@@H]12)c1ccc2[nH]nnc2c1
Read-out: cell-free assay
Technique: competition with immobilised ligand
Concentration: 1 µM
Endpoint: remaining binding
Tyrosine-protein kinase ABL1, phosphorylated (ABL1, Homo sapiens, UniProt P00519, M351T): 98%
EGFR (Homo sapiens, UniProt P00533, G719S): 100%
TXK (Homo sapiens, UniProt P42681): 84%
Tyrosine-protein kinase ABL1, phosphorylated (ABL1, Homo sapiens, UniProt P00519, Q252H): 100%
MAP4K5 (Homo sapiens, UniProt Q9Y4K4): 97%
TNIK (Homo sapiens, UniProt Q9UKE5): 98%
PIK3CA (Homo sapiens, UniProt P42336, H1047Y): 62%
BRSK1 (Homo sapiens, UniProt Q8TDC3): 89%
HIPK1 (Homo sapiens, UniProt Q86Z02): 85%
RIPK1 (Homo sapiens, UniProt Q13546): 89%
NLK (Homo sapiens, UniProt Q9UBE8): 100%
LATS2 (Homo sapiens, UniProt Q9NRM7): 86%
TNK1 (Homo sapiens, UniProt Q13470): 94%
SRPK2 (Homo sapiens, UniProt P78362): 100%
PAK2 (Homo sapiens, UniProt Q13177): 100%

Sample 3
Cell line: mouse MPNST tumor cells
Technique: high-content nuclear imaging
Measured: cell number
Concentration: 10 µM
Time: 12 h
Setting: mean of 2 replicates
Relative to: plate mean
Reading: higher = more cells
Endpoint: nuclei count
O=S(=O)(N[C@H](CO)C(C(F)(F)F)C(F)(F)F)c1ccc(Cl)s1: -0.674 z-score
COC(=O)c1ccccc1NC(=O)c1ccc(F)cc1: 1.03 z-score
C[C@]12CC[C@H]3C(=CCc4cc(O)ccc43)[C@@H]1CCC2=O: 0.664 z-score
CC(C)C(C(=O)Nc1nccs1)c1ccc(Cl)cc1 (centres unmarked): -0.721 z-score
O=c1[nH]c(=O)n([C@H]2C[C@H](O)[C@@H](CO)O2)cc1I: 4.94 z-score
Cc1nc2n(c(=O)c1CCN1CCC(c3noc4cc(F)ccc34)CC1)CCCC2O (centres unmarked): 3.89 z-score
O=c1[nH]c2cc(C(F)(F)F)c(N3CCOCC3)cc2n(CP(=O)(O)O)c1=O: 1.13 z-score
NC[C@H]1CC[C@H](C(=O)O)CC1: 1.1 z-score and 1.48 z-score
Cc1cc2c(s1)Nc1ccccc1N=C2N1CCN(C)CC1: 1.99 z-score and 0.293 z-score
CN1CCN(c2c(F)cc3c(=O)c(C(=O)O)cn(CCF)c3c2F)CC1: 1.03 z-score
CCCNC(C)(C)COC(=O)c1ccccc1: 0.664 z-score
Nc1ncc(Cc2ccc(Br)cc2)s1: 0.911 z-score
Cn1c(=O)c2c(nc(N3CCNCC3)n2Cc2nnc(-c3ccc(Cl)c(Cl)c3)o2)n(C)c1=O: 2.2 z-score
CC(=O)OCC(=O)[C@@]12OC3(CCCC3)O[C@@H]1C[C@H]1[C@@H]3CCC4=CC(=O)C=C[C@]4(C)[C@@]3(F)[C@@H](O)C[C@@]12C: 1.67 z-score

Sample 4
SMILES: COc1ccc2c(c1)c(C1=C(c3c[nH]c4ccccc34)C(=O)NC1=O)cn2CCCN(C)C
Read-out: enzyme activity
Action: inhibitor
Concentration: 0.5 µM
Relative to: control
Endpoint: remaining activity
CSNK2A1 (Homo sapiens, UniProt P68400): 95.9%
CSNK1A1 (Homo sapiens, UniProt P48729): 62.3%
EPHA5 (Homo sapiens, UniProt P54756): 87.2%
LYN (Homo sapiens, UniProt P07948): 112%
PLK2 (Homo sapiens, UniProt Q9NYY3): 103%
CHEK1 (Homo sapiens, UniProt O14757): 88.8%
MKNK2 (Homo sapiens, UniProt Q9HBH9): 81.1%
MAPK13 (Homo sapiens, UniProt O15264): 108%
MAP4K2 (Homo sapiens, UniProt Q12851): 56.3%
KIT (Homo sapiens, UniProt P10721): 88.8%
WNK2 (Homo sapiens, UniProt Q9Y3S1): 96.5%
PRKCD (Homo sapiens, UniProt Q05655): 1.67%
MAPK12 (Homo sapiens, UniProt P53778): 84.8%
IRAK4 (Homo sapiens, UniProt Q9NWZ3): 91.2%
LRRK2 (Homo sapiens, UniProt Q5S007): 87%
PRKG1 (Homo sapiens, UniProt Q13976): 99.5%
BTK (Homo sapiens, UniProt Q06187): 90.2%
PRKCI (Homo sapiens, UniProt P41743): 67.6%
MAP2K6 (Homo sapiens, UniProt P52564): 91.6%
Cyclin-dependent kinase 9, with cyclin T1 (CDK9, Homo sapiens, UniProt P50750): 69.7%
NEK4 (Homo sapiens, UniProt P51957): 90.7%
AKT3 (Homo sapiens, UniProt Q9Y243): 63.7%
